Measurements from different studies.
Each numbered part is a random draw from the data of one study; scales do not carry over between parts. Changes are numbered by the printed parent chain.

Set 1
Target: Fragile X messenger ribonucleoprotein 1, C-terminal low-complexity region (Fmr1, Mus musculus, UniProt P35922)
Method: RNA Bind-n-Seq
Molecule type: RNA
Medium: in vitro
Tested at: 200 nM
Setting: whole 134-nt RNA, ends assumed
Together with: 150 mM LiCl
Baseline: input library
Reading: higher = stronger binding
Library: 7-deaza-guanosine replaces G
Strand	log2 enrichment
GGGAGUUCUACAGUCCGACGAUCACCAUGCAGGUGGGCAUCUUUGGGAAGUGGGCCAAGGGGGGGAUAGGGAGGGGGGUAACACUUUGGGAACAGGUGGUCCCAGGUCGUUUCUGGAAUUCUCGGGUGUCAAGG	1.17
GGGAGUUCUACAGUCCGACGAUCCAAGUCCUGUGCUACACAUCGUAUGUACCGAAUCGGGAAAGGGAGGGUUUUUGGGAAAGUAUUAUGUUACGCCGUUCGGAUCUGCACUUCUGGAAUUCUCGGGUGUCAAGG	-1.01
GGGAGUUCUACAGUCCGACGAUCACUAUGCAGGUGGGCAUCUUUGGGAAGUGGGGCAAGGGGGGGAUAGGGAGGGGGGUAACACUUUGGGAACAGGUGGUCCCAGGUCGUUUCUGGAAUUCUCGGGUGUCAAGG	1.26
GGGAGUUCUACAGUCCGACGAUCUUUCGGCUACCCCCAGUUCUUCUUUGCCAAAGCGUACACGUGAAGAGGAAGAGGAUAGCACCAUAGAAGCAUCAGACCAAGUCUCUGAUGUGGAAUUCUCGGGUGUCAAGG	-1.96
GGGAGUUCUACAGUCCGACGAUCCCUCAAGUCCUGUGCUACACAUCGUAUGUACCGAAUCGGUGGGGUGGGUGGGAAAGUAUUAUGUUACGCCGUUCGGAUCUGCACUUCCAGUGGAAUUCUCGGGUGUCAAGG	-0.0699
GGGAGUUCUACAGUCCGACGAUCUCAAGUCCUGUGCUACACAUCGUAUGUACCGAAUCGGUUUGGUUUUUUUGGUGGAAAGUAUUAUGUUACGCCGUUCGGAUCUGCACUUCCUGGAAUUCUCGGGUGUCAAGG	-1.06
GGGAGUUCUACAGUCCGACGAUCAAGUCCUGUGCUACACAUCGUAUGUACCGAAUCGGUUUUUGGUUUUUGGGUUUUUGGAAAGUAUUAUGUUACGCCGUUCGGAUCUGCACUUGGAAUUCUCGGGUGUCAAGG	-1.54
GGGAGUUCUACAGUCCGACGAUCUUCAAGGCCAUGAAGGACCUGUUUAUGCGGUGCAUGCUGUUUACCAGAGGAGGACAUCAGAUCCUGCAUUAUGUACACUGAUCGUUUCUGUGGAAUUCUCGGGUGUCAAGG	-1.12

Set 2
Target: RNA binding protein fox-1 homolog 2, RRM domain, GST-SBP tag (RBFOX2, Homo sapiens, UniProt O43251-10, residues 100-194)
Method: RNA Bind-n-Seq
Molecule type: RNA
Medium: in vitro
Tested at: 365 nM
Setting: natural RNA segment, single round, ends assumed
Baseline: no-protein control
Reading: higher = stronger binding
Target sequence (chain): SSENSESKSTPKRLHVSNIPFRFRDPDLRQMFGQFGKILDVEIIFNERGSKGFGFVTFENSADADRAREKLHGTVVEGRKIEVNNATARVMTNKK
Strand	RBNS enrichment (R)
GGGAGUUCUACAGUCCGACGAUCUCUUUCACUUGUAUGUACAGAGAGGUUUUUCUGAAUAUUUAUUUUAAGGGUUAAAUCACUUUUGCUUGUGUUUAUUACUGCUUGAGGUUGAGCCUUUUGAGUAUUUAAAAUGGAAUUCUCGGGUGCCAA	0.698
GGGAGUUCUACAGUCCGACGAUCGCAGAUCUUCGUGGUUAUCAUCUCAAAGCCAUGUUCAGCAGCAGCGUUUGGACAGCAGUGUUCUGUGGGCCCUCCCCUCCCCCAUAUCCUGCACCCCCUCAUAGCAGUAGUGGAAUUCUCGGGUGCCAA	0.56
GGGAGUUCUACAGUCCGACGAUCUUUGUAAAAGCCAGGCUUGGUAGUGGGCACCUGUCAUCCCAGCACUCAGGAGGCAGGGUCAGGAGGAUUACAGGUUCAAAGCCAGUCUGGUCUAUAUUAGAAAAAGAAAAUGGAAUUCUCGGGUGCCAA	0.631
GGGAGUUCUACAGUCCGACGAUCUCAAUGGCCAACGAAGGUGCUUGGAAACACCUAACCUUGCAAGUUUUACCGCCUUUUGAGGAACACAAAUCGGAGAACAAACCCAGGGUUCAGGCGUGUUUUCUGUGAAUUGGAAUUCUCGGGUGCCAA	0.639
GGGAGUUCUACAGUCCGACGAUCCUGACACGGCUCUUGUCUAGGACCAGGGCGGCACAUCCCACCAGCGCCAUCUUCCUGGACAGAGUGAGCUGUCAGUCACUCCCCAGGUUUUUUUUGUUUUUGGGGUUUUUUGGAAUUCUCGGGUGCCAA	0.642
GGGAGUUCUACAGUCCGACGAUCUCCGGGGCAUUCCUGUUGACCCAUCAGCCCCUUCUGUUCUGGCGGCAGGGGCCUUGGGGCUCCUGGAAGCCGUGAGGUUUCUGUUUAGGCCUUAACCGAAGGCAACCUCUUGGAAUUCUCGGGUGCCAA	0.176
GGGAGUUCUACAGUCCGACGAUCUUUGUAAAUUCUUUCAGCACUGGUGUCCAUCUUUGUCUUUGUUUCAGUUAAGCUCAAUAGCGAAUGUGGGACCCCCUCCUCUGACCUUCCCUGGGGGAGAAACCCUCUUGUGGAAUUCUCGGGUGCCAA	0.231
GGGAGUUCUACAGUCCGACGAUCUUGACACGGGUCCCUGUUCGAGAAUUUCCAGUUAGCCCCAGAAGAGACUGGUUCUCCUGACCCCCACCCGAGAGCGAGAGCGCCAAGUGCAGGGCCUUGUGUUGUGUGGUUGGAAUUCUCGGGUGCCAA	0.372

Set 3
Target: CCND1, cyclin fold, Cln2 fusion (human)
Method: yeast growth competition, sequencing
Medium: yeast
Setting: weak parent motif
Baseline: not given
Reading: higher = stronger binding
Parent: KIF20B docking peptide (human); KRAKRKLYTSEIS
Variant	normalised enrichment score
KAAKRKLYTSEIS [R2A]	-0.00475
KRAKAKLYTSEIS [R5A]	-0.398
KRAKRKLATSEIS [Y8A]	-0.31
KRAKRALYTSEIS [K6A]	0.119
KRAKRKAYTSEIS [L7A]	0.00974
KRAKRKLYASEIS [T9A]	-0.3

Single results of other studies
Molecule	target	test	system	conditions	scale	quantity	result
PhoQ, residues 284 288 289 292 302 303 TASMAF	PhoP, residues 12 14 15 18 19 NHFIF (Escherichia coli, UniProt P23836)	Sort-seq, item: YFP reporter	E. coli	PhoQ-PhoP variant library, together with: 10 µM Mg2+	baseline: high Mg2+ state, higher = stronger signaling	fold induction	15.7

Some of these lines once more (set 2):
Strand	RBNS enrichment (R)
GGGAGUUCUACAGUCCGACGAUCCUGACACGGCUCUUGUCUAGGACCAGGGCGGCACAUCCCACCAGCGCCAUCUUCCUGGACAGAGUGAGCUGUCAGUCACUCCCCAGGUUUUUUUUGUUUUUGGGGUUUUUUGGAAUUCUCGGGUGCCAA	0.642
